Published values collected from several papers.
Every numbered part comes from another study and shows a few of its results, in no order.
UniProt P52333, sequence (whole entry, looked up): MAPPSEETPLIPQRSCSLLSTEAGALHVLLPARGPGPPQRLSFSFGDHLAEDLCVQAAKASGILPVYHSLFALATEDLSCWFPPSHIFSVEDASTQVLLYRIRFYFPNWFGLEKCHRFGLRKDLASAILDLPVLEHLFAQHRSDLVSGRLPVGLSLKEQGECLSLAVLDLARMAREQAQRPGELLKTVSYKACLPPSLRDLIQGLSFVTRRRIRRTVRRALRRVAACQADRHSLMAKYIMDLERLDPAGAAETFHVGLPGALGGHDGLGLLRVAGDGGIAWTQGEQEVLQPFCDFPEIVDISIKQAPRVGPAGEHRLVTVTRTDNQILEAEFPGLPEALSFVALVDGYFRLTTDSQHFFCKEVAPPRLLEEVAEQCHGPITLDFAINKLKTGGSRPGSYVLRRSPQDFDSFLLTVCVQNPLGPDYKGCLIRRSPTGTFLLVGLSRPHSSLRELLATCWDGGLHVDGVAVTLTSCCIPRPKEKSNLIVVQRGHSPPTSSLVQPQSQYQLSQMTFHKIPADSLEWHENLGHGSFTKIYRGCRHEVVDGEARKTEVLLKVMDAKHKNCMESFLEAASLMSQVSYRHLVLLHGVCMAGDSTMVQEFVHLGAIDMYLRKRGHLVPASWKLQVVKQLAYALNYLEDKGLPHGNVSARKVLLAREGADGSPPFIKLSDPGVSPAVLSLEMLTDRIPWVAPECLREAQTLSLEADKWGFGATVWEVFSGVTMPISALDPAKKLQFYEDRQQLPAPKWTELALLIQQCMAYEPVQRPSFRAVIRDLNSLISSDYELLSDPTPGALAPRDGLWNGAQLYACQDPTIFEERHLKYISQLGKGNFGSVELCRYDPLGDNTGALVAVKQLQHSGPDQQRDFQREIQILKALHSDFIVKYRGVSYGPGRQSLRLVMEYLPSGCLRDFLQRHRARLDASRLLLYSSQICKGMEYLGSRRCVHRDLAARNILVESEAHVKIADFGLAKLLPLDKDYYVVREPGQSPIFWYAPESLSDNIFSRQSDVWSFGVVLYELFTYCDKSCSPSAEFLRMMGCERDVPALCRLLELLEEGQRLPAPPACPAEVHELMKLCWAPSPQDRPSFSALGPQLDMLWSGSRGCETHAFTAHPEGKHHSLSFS
UniProt P78368, sequence (whole entry, looked up): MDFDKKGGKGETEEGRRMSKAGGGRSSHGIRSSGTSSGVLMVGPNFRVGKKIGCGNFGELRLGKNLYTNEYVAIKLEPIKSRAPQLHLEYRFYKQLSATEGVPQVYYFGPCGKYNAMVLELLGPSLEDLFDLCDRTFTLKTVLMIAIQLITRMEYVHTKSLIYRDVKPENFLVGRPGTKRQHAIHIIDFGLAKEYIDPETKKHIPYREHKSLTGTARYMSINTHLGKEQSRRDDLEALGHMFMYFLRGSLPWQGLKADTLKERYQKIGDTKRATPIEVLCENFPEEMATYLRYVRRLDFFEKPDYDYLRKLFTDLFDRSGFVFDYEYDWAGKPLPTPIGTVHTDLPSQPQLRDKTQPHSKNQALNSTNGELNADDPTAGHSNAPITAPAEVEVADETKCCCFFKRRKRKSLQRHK
UniProt Q9UHD2, sequence (whole entry, looked up): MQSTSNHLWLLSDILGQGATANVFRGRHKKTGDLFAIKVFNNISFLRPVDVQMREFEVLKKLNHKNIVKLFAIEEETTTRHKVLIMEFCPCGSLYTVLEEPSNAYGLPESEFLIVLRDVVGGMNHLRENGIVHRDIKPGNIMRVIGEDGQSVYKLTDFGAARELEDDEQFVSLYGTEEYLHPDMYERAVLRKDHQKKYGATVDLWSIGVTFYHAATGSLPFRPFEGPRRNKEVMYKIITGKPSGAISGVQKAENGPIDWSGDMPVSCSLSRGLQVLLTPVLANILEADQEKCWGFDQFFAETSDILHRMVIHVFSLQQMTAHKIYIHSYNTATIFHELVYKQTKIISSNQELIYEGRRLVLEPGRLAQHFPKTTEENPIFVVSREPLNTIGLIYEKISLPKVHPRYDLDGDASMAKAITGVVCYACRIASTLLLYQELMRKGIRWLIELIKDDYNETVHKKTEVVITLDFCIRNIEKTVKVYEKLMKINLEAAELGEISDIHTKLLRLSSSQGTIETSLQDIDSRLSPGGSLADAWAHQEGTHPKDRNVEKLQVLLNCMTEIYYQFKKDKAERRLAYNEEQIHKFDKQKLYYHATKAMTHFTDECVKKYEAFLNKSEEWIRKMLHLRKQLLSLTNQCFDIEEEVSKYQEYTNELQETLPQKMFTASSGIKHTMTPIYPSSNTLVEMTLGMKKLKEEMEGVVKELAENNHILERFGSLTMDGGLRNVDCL
UniProt Q15835, sequence (whole entry, looked up): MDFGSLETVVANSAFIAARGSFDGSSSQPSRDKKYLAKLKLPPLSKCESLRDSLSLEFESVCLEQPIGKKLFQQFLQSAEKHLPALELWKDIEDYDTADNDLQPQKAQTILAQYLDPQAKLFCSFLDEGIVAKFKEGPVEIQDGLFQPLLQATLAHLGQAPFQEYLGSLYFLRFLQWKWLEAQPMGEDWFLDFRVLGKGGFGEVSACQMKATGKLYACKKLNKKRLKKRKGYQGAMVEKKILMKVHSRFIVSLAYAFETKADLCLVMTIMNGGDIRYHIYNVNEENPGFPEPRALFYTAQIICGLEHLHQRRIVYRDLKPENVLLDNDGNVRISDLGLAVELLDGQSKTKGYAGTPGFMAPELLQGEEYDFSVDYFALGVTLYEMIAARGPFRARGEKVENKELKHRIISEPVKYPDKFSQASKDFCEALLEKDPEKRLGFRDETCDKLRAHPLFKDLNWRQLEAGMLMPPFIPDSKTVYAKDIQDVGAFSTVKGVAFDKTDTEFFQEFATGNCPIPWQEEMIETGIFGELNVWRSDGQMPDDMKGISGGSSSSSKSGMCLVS
UniProt O00444, sequence (whole entry, looked up): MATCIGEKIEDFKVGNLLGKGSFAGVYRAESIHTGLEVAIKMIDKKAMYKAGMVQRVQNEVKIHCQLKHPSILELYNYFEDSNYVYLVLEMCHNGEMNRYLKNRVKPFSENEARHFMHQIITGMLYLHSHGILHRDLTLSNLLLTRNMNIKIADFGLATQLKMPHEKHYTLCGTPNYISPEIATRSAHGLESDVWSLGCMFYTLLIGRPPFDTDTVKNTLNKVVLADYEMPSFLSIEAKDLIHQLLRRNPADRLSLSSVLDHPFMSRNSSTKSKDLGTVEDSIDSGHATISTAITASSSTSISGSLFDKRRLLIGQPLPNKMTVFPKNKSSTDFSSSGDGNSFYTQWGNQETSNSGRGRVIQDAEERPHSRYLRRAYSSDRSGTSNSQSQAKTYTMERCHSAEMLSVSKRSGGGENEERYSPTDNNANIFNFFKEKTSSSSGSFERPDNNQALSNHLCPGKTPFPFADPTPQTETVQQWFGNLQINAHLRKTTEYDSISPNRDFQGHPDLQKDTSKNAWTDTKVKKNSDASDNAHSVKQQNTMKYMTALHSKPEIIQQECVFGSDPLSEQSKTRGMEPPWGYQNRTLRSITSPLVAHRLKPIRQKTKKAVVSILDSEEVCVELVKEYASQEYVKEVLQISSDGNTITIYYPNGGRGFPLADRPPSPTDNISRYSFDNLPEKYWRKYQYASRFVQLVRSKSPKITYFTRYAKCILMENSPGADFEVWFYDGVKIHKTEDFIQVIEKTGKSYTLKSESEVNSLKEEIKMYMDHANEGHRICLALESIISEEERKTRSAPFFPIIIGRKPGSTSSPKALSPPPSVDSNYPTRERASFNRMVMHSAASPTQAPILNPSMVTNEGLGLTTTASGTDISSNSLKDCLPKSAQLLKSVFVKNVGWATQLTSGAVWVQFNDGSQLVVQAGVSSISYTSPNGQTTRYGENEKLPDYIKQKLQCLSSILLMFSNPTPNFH
UniProt Q9Y2U5, sequence (whole entry, looked up): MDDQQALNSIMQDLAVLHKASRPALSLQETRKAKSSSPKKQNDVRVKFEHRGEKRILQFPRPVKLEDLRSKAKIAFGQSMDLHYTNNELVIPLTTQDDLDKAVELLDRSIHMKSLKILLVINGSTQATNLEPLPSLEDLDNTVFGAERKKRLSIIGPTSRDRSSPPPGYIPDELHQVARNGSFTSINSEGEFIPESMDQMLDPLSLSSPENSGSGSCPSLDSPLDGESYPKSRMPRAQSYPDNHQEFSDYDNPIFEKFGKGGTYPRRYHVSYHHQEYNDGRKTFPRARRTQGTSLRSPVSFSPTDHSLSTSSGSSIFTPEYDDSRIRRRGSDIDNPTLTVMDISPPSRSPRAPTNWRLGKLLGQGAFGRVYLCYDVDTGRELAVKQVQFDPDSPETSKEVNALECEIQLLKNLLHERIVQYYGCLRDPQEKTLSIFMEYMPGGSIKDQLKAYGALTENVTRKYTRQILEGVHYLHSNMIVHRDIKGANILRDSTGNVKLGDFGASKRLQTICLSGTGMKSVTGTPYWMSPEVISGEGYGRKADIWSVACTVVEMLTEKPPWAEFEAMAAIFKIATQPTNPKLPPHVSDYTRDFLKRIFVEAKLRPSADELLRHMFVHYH
UniProt P29371, sequence (whole entry, looked up): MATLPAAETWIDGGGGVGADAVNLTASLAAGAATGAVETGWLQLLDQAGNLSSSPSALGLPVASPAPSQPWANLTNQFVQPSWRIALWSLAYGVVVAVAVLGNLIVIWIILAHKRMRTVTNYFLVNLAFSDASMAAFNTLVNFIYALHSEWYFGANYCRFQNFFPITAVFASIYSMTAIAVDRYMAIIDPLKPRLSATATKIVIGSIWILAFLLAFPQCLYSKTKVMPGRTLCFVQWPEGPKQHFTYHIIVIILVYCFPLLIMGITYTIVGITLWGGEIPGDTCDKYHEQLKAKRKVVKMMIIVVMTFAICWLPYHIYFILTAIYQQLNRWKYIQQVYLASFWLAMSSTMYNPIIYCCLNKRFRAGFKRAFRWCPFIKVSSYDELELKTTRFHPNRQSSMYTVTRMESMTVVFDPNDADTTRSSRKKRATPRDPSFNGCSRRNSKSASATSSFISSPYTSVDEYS

Study 1
Structure (SMILES): N=C(N)NC(=O)c1cnn(-c2cccc3ncccc23)c1C1CC1
Effect on: β-arrestin recruitment
Mode: agonist
Method: PRESTO-Tango
Tested at: 10 µM
Baseline: untreated
It gave 1.21 for “fold over basal” (HTR1A (Homo sapiens, UniProt P08908)).
It gave 0.47 for “fold over basal” (CMKLR1 (Homo sapiens, UniProt Q99788)).
ADRB3 (Homo sapiens, UniProt P13945) — “fold over basal”: 1.67.
It gave 0.94 for “fold over basal” (MTNR1A (Homo sapiens, UniProt P48039)).
For TACR3 (Homo sapiens, UniProt P29371): “fold over basal” read 1.27 fold.
The “fold over basal” was 0.82 (Nociceptin receptor (OPRL1, Homo sapiens, UniProt P41146)).

Study 2
SMILES: CC(C)S(=O)(=O)c1ccc2nccc(Nc3ccc4sc(C5CCCC5)nc4c3)c2c1
Effect on: kinase activity
Mode: inhibitor
Tested at: 1 µM
It gave 99.5% for remaining activity (MAP3K2 (Homo sapiens, UniProt Q9Y2U5)).
The remaining activity was 100% (CSNK1A1 (Homo sapiens, UniProt P48729)).
The remaining activity was 102% (PIP5K1A (Homo sapiens, UniProt Q99755)).

Study 3
Compound: O=C(NC[C@@H]1[C@H]2CN(C(=O)OCc3cc(C(F)(F)F)cc(C(F)(F)F)c3)C[C@@H]12)c1ccc2[nH]nnc2c1
Effect on: cell-free assay
Method: competition with immobilised ligand
Tested at: 1 µM
The remaining binding was 100% (PIP4K2C (Homo sapiens, UniProt Q8TBX8)).
It gave 100% for remaining binding (PRKCE (Homo sapiens, UniProt Q02156)).
MAPK1 (Homo sapiens, UniProt P28482) — remaining binding: 100%.
It gave 90% for remaining binding (GRK1 (Homo sapiens, UniProt Q15835)).
The remaining binding was 69% (RIOK1 (Homo sapiens, UniProt Q9BRS2)).
It gave 90% for remaining binding (WNK1 (Homo sapiens, UniProt Q9H4A3)).
For DCLK1 (Homo sapiens, UniProt O15075): remaining binding read 94%.
For PLK4 (Homo sapiens, UniProt O00444): remaining binding read 82%.

Study 4
SMILES: N#CC(c1ccnc(NCCc2cccnc2)n1)c1nc2ccccc2s1 (stereo not shown)
Effect on: enzyme activity
Mode: inhibitor
Tested at: 0.5 µM
Baseline: control
For NEK6 (Homo sapiens, UniProt Q9HC98): remaining activity read 101%.
CSNK1G3 (Homo sapiens, UniProt Q9Y6M4) — remaining activity: 87.1%.
It gave 99.1% for remaining activity (ULK3 (Homo sapiens, UniProt Q6PHR2)).
For MAPKAPK2 (Homo sapiens, UniProt P49137): remaining activity read 97.8%.
The remaining activity was 76.2% (MAP2K2 (Homo sapiens, UniProt P36507)).
The remaining activity was 106% (JAK3 (Homo sapiens, UniProt P52333)).
FGFR3 (Homo sapiens, UniProt P22607) — remaining activity: 98.2%.
The remaining activity was 100% (TBK1 (Homo sapiens, UniProt Q9UHD2)).
The remaining activity was 98.8% (ABL2 (Homo sapiens, UniProt P42684)).
The remaining activity was 87% (CSNK1G2 (Homo sapiens, UniProt P78368)).
For TAOK2 (Homo sapiens, UniProt Q9UL54): remaining activity read 86.4%.
The remaining activity was 88.5% (WEE1 (Homo sapiens, UniProt P30291)).
For RPS6KA2 (Homo sapiens, UniProt Q15349): remaining activity read 89.6%.
The remaining activity was 116% (ULK2 (Homo sapiens, UniProt Q8IYT8)).
